Experimental data of several laboratories.
A part holds a random share of what one study measured.
Chain of UniProt Q56UN5 (whole entry, looked up): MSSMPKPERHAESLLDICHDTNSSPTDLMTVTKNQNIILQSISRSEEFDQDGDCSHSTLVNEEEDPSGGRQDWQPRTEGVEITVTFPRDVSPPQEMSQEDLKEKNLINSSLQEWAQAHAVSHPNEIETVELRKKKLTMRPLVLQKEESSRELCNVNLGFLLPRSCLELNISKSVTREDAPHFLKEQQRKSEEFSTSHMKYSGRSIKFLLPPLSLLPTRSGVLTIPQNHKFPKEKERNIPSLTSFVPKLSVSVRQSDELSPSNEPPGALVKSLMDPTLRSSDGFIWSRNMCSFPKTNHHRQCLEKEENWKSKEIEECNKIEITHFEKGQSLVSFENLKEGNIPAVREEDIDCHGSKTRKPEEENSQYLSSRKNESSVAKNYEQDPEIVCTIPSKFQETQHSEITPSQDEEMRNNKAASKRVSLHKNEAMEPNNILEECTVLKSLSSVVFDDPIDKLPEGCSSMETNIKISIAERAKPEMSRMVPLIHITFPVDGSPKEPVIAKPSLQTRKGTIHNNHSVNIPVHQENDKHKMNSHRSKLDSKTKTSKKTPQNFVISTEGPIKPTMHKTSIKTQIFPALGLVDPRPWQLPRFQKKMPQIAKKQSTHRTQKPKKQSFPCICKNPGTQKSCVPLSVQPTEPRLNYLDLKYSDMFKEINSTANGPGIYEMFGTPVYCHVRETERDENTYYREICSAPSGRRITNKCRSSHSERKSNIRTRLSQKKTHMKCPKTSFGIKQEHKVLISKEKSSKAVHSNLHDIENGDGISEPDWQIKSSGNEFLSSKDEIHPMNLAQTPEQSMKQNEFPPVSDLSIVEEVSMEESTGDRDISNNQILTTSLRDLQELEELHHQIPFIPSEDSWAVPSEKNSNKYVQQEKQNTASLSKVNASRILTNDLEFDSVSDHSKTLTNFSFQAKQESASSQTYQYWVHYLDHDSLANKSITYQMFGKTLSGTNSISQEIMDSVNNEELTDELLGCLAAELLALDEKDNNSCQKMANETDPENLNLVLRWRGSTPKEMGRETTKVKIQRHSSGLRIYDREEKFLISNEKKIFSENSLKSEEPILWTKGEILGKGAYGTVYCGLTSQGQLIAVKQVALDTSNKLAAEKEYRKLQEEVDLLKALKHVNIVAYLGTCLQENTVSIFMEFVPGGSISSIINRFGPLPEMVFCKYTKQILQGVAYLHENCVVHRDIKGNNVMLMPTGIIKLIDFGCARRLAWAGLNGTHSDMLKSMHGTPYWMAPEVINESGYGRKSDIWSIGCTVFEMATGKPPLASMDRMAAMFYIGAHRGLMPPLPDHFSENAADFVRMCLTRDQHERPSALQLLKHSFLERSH
Chain of UniProt Q92918 (whole entry, looked up): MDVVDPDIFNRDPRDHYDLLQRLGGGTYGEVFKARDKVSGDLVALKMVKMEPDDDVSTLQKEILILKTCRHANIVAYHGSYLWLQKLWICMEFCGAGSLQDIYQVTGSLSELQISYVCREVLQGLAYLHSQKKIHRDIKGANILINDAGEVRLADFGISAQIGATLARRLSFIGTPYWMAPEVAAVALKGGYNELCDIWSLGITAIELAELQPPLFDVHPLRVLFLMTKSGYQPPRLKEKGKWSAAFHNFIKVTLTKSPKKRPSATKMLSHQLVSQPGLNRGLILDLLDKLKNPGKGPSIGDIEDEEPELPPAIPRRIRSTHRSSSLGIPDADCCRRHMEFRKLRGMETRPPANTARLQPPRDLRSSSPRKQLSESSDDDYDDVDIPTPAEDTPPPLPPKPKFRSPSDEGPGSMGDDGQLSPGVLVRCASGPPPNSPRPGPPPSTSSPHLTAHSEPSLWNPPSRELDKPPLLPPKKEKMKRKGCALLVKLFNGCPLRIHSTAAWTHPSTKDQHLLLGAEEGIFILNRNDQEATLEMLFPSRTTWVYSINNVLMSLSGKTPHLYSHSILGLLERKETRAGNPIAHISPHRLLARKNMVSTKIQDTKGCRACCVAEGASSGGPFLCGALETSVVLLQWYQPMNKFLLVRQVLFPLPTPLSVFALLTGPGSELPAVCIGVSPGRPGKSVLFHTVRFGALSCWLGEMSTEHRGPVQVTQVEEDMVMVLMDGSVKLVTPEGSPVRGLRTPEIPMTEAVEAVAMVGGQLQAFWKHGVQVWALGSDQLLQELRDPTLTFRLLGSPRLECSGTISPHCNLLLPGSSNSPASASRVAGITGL
Chain of UniProt Q9BVS4 (whole entry, looked up): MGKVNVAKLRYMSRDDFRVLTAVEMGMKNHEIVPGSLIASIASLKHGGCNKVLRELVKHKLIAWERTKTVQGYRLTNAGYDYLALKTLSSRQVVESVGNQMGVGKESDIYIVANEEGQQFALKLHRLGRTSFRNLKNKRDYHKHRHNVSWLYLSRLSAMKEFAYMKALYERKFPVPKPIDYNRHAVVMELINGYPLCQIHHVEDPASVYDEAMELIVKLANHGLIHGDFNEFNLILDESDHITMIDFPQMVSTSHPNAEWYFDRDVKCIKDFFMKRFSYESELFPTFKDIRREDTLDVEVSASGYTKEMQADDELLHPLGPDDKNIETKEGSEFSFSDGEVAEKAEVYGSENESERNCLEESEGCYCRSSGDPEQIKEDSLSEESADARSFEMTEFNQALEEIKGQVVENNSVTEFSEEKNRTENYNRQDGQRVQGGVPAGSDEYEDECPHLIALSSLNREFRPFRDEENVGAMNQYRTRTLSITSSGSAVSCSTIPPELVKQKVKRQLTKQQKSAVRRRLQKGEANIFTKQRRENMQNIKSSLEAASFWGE
Chain of UniProt Q08881 (whole entry, looked up): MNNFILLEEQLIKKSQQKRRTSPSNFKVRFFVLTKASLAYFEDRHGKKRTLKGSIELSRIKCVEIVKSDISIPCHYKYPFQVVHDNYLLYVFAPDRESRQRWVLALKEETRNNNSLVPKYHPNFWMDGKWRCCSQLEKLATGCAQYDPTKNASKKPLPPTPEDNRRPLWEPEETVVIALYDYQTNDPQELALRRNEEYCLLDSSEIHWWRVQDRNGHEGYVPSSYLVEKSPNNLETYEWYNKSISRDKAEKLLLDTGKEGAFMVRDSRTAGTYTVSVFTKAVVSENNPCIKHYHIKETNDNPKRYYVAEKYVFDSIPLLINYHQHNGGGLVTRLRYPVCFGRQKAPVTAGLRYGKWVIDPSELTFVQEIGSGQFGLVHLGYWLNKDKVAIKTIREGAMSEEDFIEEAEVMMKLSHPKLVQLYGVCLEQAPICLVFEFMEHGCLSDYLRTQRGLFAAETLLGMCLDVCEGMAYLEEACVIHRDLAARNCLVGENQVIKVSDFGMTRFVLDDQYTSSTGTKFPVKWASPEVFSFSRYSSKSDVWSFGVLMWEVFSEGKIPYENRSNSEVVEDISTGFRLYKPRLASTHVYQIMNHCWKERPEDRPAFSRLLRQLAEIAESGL
Chain of UniProt Q8TF76 (whole entry, looked up): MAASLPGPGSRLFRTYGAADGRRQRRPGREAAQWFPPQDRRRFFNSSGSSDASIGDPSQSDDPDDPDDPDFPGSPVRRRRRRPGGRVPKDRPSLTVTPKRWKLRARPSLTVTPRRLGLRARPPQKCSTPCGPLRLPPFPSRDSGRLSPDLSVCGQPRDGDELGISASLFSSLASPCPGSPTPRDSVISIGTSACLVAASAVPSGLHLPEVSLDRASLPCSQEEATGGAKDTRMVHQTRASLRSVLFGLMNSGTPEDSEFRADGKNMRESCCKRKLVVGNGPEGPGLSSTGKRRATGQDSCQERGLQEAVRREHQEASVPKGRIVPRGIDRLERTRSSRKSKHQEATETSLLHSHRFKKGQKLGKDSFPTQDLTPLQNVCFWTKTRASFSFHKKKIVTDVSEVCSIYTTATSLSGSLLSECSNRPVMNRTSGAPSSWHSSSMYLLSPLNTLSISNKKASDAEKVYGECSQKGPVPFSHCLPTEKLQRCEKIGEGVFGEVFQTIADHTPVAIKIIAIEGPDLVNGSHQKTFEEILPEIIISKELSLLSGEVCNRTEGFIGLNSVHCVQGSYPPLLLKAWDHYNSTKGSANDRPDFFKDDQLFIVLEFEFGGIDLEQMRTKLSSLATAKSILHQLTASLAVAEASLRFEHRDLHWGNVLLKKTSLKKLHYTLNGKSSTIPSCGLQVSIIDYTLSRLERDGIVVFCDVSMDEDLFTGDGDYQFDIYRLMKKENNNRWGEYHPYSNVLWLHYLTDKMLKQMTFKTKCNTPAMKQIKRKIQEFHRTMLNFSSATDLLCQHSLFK

Series 1 — method: RNA Bind-n-Seq; form: RNA; medium: in vitro; concentration: not given; relative to: input RNA pool; reading: higher = stronger binding; measurement: bound/input enrichment
Target: RING finger protein unkempt homolog, zinc fingers 1-6, GST-SBP tag (UNK, Homo sapiens, UniProt Q9C0B0, residues 30-357)
Setting: RNA with constant flanks, human and mouse sites, ends assumed
Constant ends, left off below: GGGAGUUCUACAGUCCGACGAUC … CAACAGAGGAUUGAGCAUCA
Construct (chain): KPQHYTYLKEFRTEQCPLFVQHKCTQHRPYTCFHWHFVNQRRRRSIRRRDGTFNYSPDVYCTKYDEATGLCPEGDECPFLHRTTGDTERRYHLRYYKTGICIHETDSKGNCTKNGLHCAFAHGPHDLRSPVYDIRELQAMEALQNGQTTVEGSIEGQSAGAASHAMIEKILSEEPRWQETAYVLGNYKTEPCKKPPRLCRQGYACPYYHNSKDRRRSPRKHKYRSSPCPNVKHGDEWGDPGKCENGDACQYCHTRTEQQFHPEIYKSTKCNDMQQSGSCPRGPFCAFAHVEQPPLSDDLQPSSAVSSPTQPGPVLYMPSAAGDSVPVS
CCAUCCCUCAGUGACAGCAUGCCGUCUGUAGCAGAUUCCCACUCCAGUCAUUUUUCUGAAUUUAGCUGCUCAGACUUAGAAAGCAUGAGAACGUCCUGUAGUCACGGCUCCAGUGAUUGC: 0.461 ratio
GAUUACAAGGGCCAGAAGCUAGCUGAACAGAUGUUUCAGGGAAUUAUUCUUUUUUCUGCAAUAGUUGGAUUUAUCUACGGGUACGUGGCUGAACAGUUCGGGUGGACUGUCUAUAUAGUU: 0.483 ratio
GCCGGAGAUGCCCUGGAUGGCGGCUUUCAGGCGCGGUGUGAGAAGAGCCCUUUCGACCAGCUAGCUUUUAUCGAAGAGCUGUUUUCGCUGAUGGUUGUCAAUCGACUGACCGAAGAGCUC: 0.273 ratio
GAGUCCGCUGCCCCGGCCCUCCAGGGCCGCCUCCUCUGUUUGCUUUGCAGAGGAGGGAACUGCUCCUUCGACUCUGCAGCUCAGGCCUGUCCCCGACACAGCCCCCAGGGAGUCUUCUAG: 0.137 ratio
CAGUUGGAAUUGAUCACACCUUUUCAGUUAUACUUCAAUCCUGAAUUAAUUUUUAAACAUUUUCAAAUCUGGAGGCUAAUCACCAAUUUCUUAUUUUUUGGUCCAGUUGGAUUCAAUUUU: 0.851 ratio
GAGGAUGGAGAAGACCAGCCAAAGCAAGUUUAUGUUGAUAAGUUGGCUGAAUUAAAAAAUCUAGGUCAACCUAUUAAGAUACGUUUCCAGGAAUCUGAAGAACGACCAAAAUUAUUUGAA: 0.392 ratio
UUUAUACAAGGAGAAGCACUGGAUCCAAAGCAUGUCUGCAACCCAGCCAUUUUCAGGCUAAUAGCUCGUCAGCUUGCUAAAAUCCAUGCUAUUCAUGCACACAAUGGCUGGAUCCCCAAA: 0.182 ratio
CCUGCUGUGAACAUUCAGCCAGAUGUUUCUGGAGGUUGGGACUGGCAUGCUAAACCAGGAGGCUUUGGAAUGGGAAGCAAGUCAGCUGCCACCAGCCCAACCGGAUCCUCGCAUGGUACU: 0.0835 ratio

Series 2 — mode: antagonist; measurement: IC50
Target: Beta-1 adrenergic receptor (ADRB1, Homo sapiens, UniProt P08588)
Chain of UniProt P08588 (whole entry, looked up): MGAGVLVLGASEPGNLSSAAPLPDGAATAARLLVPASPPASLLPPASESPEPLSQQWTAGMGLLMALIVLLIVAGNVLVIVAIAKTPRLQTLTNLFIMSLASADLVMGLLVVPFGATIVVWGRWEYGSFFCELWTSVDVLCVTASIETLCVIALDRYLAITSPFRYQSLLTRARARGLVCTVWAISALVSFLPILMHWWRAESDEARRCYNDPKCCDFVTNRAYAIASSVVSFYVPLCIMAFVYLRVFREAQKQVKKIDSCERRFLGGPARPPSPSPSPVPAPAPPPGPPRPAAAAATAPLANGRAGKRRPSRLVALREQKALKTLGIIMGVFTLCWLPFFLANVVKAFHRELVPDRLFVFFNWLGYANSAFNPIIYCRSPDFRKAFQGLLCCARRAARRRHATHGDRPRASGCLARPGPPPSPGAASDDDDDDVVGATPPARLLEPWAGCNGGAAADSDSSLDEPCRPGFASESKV
COCc1cc(CC2(NCc3ccc(N(C)C)cc3)COC2)no1: ≥ 100 µM
Cc1cc(-c2cc(C)c3ccccc3n2)c(C)o1: ≥ 100 µM
OC1(c2nc(Nc3cccc(F)c3)n[nH]2)CCOCC1: ≥ 100 µM
COc1ccccc1-c1ccc2ncc(Nc3cc(F)cc(N4CCOCC4)c3)n2n1: ≥ 100 µM
O=c1c2c3c(sc2ncn1CC(O)COc1ccc(Cl)cc1Cl)CCC3 (stereo not shown): ≥ 100 µM

Series 3 — method: Spec-seq; form: double-stranded DNA, one strand shown; medium: in vitro; concentration: not given; setting: whole probe, mean of replicates; relative to: not given; reading: lower = stronger binding; measurement: relative binding energy; constant ends, left off below: GAGTCGTCTCGTCAGCAC … CCGTAGAGCACTCAGGTC
Target: POU domain, class 5, transcription factor 1, POU domain (Pou5f1, Mus musculus, UniProt P20263, residues 131-289)
Chain of UniProt P20263 (131-289, looked up): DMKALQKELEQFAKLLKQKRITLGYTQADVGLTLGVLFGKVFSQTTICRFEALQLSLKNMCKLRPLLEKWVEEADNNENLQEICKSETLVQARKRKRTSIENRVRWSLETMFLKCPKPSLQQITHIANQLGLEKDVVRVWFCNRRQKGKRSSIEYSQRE
ATGCGTGC: 0.357 ln ratio
ATTGACAT: 0.145 ln ratio
ATGCCTAC: 0.32 ln ratio
TTCGTAAT: 0.708 ln ratio
ATACAGAT: 0.396 ln ratio
ATGCACAG: 0.0511 ln ratio
ATGCACAT: -0.0589 ln ratio
ATGTATAT: -0.835 ln ratio

Series 4 — read-out: cell-free assay; method: competition with immobilised ligand; concentration: 1 µM; measurement: remaining binding
Structure (SMILES): O=C(NCc1ncc(C(F)(F)F)cc1Cl)c1ccc2c(c1)C1(CCS(=O)(=O)CC1)[C@@H](C1CC1)N2S(=O)(=O)c1ccc(F)cc1
Mitogen-activated protein kinase kinase kinase 19 (MAP3K19, Homo sapiens, UniProt Q56UN5): 69%
Tyrosine-protein kinase ABL1, non-phosphorylated (ABL1, Homo sapiens, UniProt P00519, H396P): 100%
Mitogen-activated protein kinase kinase kinase 12 (MAP3K12, Homo sapiens, UniProt Q12852): 87%
Serine/threonine-protein kinase RIO2 (RIOK2, Homo sapiens, UniProt Q9BVS4): 77%
Serine/threonine-protein kinase haspin (HASPIN, Homo sapiens, UniProt Q8TF76): 77%
Mitogen-activated protein kinase kinase kinase kinase 1 (MAP4K1, Homo sapiens, UniProt Q92918): 89%
Tyrosine-protein kinase ITK/TSK (ITK, Homo sapiens, UniProt Q08881): 100%

For quick reference, copied from above (series 1):
GAGGAUGGAGAAGACCAGCCAAAGCAAGUUUAUGUUGAUAAGUUGGCUGAAUUAAAAAAUCUAGGUCAACCUAUUAAGAUACGUUUCCAGGAAUCUGAAGAACGACCAAAAUUAUUUGAA: 0.392 ratio
UUUAUACAAGGAGAAGCACUGGAUCCAAAGCAUGUCUGCAACCCAGCCAUUUUCAGGCUAAUAGCUCGUCAGCUUGCUAAAAUCCAUGCUAUUCAUGCACACAAUGGCUGGAUCCCCAAA: 0.182 ratio
CCUGCUGUGAACAUUCAGCCAGAUGUUUCUGGAGGUUGGGACUGGCAUGCUAAACCAGGAGGCUUUGGAAUGGGAAGCAAGUCAGCUGCCACCAGCCCAACCGGAUCCUCGCAUGGUACU: 0.0835 ratio
